Results collected from several papers.
Protocols differ between the studies behind these lines. “And” joins repeats or separate records; there may be more than shown.
UniProt Q9JHG7, sequence (whole entry, looked up): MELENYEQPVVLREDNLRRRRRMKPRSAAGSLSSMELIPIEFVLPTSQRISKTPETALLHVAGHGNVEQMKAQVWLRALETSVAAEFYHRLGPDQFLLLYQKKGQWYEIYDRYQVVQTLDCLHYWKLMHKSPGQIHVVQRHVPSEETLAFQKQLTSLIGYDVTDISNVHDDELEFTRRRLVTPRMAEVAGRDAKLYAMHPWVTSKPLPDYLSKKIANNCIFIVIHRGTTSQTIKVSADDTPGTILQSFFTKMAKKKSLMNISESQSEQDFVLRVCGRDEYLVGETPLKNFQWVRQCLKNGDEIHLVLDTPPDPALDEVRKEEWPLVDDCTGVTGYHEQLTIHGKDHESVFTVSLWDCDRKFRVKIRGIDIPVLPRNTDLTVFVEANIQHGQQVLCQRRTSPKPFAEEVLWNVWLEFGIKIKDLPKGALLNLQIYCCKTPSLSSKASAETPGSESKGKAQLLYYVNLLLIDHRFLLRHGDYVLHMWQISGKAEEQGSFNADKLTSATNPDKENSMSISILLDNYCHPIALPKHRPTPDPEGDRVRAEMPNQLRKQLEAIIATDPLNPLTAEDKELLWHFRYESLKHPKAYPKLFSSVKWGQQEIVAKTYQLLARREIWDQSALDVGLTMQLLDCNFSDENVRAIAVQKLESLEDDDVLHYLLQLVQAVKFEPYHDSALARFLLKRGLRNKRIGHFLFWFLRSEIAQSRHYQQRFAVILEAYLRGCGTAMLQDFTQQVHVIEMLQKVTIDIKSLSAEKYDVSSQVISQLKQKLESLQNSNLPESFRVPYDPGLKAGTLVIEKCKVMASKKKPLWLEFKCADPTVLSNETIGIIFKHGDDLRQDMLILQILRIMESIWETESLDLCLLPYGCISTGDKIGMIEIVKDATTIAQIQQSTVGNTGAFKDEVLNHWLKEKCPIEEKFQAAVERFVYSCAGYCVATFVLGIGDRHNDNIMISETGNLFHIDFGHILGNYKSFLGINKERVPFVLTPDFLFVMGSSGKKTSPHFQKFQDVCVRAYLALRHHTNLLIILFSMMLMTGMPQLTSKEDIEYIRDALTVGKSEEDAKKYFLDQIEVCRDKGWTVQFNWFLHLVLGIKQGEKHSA
UniProt P31639, sequence (whole entry, looked up): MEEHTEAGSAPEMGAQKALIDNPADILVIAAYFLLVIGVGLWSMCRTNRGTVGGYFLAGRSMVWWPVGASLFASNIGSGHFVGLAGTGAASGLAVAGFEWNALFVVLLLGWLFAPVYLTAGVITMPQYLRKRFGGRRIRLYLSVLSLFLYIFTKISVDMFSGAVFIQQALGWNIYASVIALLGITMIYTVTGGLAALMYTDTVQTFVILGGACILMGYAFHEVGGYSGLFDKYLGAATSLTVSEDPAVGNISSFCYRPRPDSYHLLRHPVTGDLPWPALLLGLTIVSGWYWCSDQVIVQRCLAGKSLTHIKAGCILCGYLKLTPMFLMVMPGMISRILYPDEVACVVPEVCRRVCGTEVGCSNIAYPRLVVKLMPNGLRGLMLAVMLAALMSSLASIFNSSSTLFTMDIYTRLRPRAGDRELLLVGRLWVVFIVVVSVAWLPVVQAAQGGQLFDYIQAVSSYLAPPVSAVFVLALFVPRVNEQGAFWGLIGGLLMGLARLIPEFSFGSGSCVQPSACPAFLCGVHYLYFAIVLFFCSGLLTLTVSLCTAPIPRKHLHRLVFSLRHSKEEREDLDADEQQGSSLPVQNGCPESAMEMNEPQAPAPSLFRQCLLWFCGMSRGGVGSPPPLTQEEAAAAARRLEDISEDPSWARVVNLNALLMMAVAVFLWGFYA
UniProt P30305, sequence (whole entry, looked up): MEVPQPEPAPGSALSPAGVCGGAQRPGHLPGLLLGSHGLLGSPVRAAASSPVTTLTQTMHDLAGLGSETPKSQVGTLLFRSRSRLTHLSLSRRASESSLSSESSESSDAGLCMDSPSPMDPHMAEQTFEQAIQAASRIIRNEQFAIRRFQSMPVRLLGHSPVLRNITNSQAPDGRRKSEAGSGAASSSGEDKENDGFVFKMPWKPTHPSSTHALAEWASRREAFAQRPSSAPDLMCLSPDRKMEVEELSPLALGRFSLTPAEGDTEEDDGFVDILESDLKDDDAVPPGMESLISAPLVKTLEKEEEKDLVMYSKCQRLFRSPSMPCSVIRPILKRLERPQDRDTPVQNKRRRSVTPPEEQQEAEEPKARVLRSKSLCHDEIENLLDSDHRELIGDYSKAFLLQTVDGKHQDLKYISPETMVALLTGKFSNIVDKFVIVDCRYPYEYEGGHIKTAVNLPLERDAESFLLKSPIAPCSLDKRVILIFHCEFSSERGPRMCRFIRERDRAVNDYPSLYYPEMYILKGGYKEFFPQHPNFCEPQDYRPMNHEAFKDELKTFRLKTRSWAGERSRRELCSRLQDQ
UniProt O75762, sequence (whole entry, looked up): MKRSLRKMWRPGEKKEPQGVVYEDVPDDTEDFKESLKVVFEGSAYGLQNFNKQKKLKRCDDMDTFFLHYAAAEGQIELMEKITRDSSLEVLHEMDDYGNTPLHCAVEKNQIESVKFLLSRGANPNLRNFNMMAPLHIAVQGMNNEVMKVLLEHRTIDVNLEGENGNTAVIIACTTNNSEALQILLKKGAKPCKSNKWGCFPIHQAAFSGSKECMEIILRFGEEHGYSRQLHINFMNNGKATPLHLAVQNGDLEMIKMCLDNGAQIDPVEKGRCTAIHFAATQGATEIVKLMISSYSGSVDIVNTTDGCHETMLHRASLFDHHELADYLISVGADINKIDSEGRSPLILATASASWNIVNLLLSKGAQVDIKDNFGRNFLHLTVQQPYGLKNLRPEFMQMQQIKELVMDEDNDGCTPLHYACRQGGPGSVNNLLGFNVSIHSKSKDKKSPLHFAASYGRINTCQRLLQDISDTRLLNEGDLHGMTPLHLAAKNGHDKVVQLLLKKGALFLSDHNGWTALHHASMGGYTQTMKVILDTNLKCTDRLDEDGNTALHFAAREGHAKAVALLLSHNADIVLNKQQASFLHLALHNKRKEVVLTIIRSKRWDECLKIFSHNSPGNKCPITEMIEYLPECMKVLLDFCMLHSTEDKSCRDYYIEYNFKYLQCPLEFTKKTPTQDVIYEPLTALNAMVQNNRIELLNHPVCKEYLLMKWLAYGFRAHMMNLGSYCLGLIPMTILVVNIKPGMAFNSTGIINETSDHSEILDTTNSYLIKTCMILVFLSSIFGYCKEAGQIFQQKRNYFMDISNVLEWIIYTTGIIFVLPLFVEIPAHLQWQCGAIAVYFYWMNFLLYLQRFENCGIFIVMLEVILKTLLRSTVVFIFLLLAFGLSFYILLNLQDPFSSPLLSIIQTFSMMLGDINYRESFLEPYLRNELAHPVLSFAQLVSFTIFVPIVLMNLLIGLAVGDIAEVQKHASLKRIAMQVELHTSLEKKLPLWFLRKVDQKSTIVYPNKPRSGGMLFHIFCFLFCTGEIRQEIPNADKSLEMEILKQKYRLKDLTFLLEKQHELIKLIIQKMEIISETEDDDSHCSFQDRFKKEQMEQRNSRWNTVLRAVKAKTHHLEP
UniProt O43613, sequence (whole entry, looked up): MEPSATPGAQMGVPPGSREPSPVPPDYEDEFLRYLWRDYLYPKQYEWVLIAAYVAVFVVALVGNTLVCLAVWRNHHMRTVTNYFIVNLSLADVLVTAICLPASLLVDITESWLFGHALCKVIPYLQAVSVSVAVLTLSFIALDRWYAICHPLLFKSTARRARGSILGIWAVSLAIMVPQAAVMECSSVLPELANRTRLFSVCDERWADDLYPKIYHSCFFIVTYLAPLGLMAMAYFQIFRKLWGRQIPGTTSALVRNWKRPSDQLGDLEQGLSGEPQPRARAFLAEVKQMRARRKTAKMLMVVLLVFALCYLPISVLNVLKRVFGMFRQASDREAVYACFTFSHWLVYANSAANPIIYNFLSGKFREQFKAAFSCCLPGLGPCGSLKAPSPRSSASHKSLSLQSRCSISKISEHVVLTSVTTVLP
UniProt P34913, sequence (whole entry, looked up): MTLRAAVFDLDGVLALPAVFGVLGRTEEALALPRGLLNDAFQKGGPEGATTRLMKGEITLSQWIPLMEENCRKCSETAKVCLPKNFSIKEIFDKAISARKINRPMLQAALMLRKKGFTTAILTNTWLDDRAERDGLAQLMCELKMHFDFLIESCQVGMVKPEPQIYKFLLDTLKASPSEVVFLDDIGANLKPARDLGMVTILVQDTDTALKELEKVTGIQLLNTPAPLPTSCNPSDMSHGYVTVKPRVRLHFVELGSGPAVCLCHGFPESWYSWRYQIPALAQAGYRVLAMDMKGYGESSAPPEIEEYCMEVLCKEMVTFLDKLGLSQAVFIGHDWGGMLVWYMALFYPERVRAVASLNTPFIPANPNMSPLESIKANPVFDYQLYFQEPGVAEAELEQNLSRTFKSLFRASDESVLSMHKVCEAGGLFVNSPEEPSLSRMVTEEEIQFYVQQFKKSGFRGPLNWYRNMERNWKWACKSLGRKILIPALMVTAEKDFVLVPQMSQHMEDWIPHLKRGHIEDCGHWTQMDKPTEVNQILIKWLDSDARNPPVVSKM
UniProt P28062, sequence (whole entry, looked up): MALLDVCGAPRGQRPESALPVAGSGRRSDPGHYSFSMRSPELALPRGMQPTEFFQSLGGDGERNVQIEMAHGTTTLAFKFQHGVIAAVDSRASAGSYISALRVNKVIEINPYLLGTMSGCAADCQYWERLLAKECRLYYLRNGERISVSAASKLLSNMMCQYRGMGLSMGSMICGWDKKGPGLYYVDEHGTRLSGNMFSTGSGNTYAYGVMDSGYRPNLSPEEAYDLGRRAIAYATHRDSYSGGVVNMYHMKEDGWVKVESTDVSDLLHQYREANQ
UniProt P62942, sequence (whole entry, looked up): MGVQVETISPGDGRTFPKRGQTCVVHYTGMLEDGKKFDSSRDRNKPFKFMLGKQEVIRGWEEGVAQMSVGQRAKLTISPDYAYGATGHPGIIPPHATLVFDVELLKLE

CCCCCCCCC/C=C/C=C/C(=O)N[C@H](C(=O)N[C@H]1C[C@@H](O)CCNC(=O)/C=C/[C@H](C)NC1=O)[C@@H](C)O — IC50 (Proteasome subunit beta type-8, chymotrypsin-like site (PSMB8, Homo sapiens, UniProt P28062); enzyme activity, inhibitor, fluorescence): 7.1 nM
CN(C(=O)c1ccn2ncc(-c3ccc(C(N)=O)cc3)c2c1)c1ccc(C#N)cn1 — IC50 (CCKBR (Homo sapiens, UniProt P32239); ligand displacement): > 30000 nM
CC(C)C[C@@H](NC(=O)[C@@H](Cc1ccccc1)NC(=O)[C@H]1CCCN1C(=O)[C@@H](CCC(N)=O)NC(=O)[C@H](NC(=O)[C@H]1CCCN1C(=O)[C@@H](CCCNC(=N)N)NC(=O)[C@@H](CO)NC(=O)[C@@H](CCC(N)=O)NC(=O)[C@@H](CC(=O)O)NC(=O)[C@H](N)[C@H](C)O)C(C)C)C(=O)N[C@H](CC(N)=O)C(=O)N[C@H](CC(C)C)C(=O)N[C@@H](C(=O)N[C@@H](C(=O)N1CCC[C@@H]1C(=O)N[C@H](CCCNC(=N)N)C(=O)N[C@H](CCCCN)C(=O)N1CCC[C@@H]1C(=O)N[C@H](CCCNC(=N)N)C(=O)N1CCC[C@@H]1C(=O)N1CCC[C@@H]1C(=O)N[C@H](CCCNC(=N)N)C(=O)N[C@H](CCCNC(=N)N)C(=O)N[C@H](CCCNC(=N)N)C(=O)N[C@H](CCC(N)=O)C(=O)N[C@H](CCCNC(=N)N)C(=O)N[C@H](CCCNC(=N)N)C(=O)N[C@H](CCCCN)C(=O)N[C@H](CCCCN)C(=O)N[C@H](CCCNC(=N)N)C(=O)NCC(N)=O)[C@H](C)O)[C@H](C)O — IC50 (Mapk1 (Rattus norvegicus, UniProt P63086); enzyme activity, inhibitor, radiometric; pH 7.5): 206000 nM
Cc1ccc(S[C@@H]2O[C@H](CO)[C@@H](O)[C@H](O)[C@H]2O)cc1 — IC50 (SLC5A2 (Homo sapiens, UniProt P31639); transporter uptake, inhibitor, radiometric): 52000 nM
C[C@@H]1CCN(c2nc3cc(Cl)ccc3o2)CCN1S(=O)(=O)c1ccc2c(c1)OCCO2 — IC50 (HCRTR1 (Homo sapiens, UniProt O43613); calcium signal, antagonist, fluorescence): 750 nM
O=C(Nc1ccc(-c2nc(-c3ccccc3)cs2)cc1)C1CCN(Cc2ccc(O)cc2)CC1 — IC50 (FAAH (Homo sapiens, UniProt O00519); enzyme activity, inhibitor, fluorescence; pH 8, with preincubation): 23.2 nM
CCC1(CC)C[C@@H](NC(=O)Nc2cccc3c(C)nccc23)c2cc(F)ccc2O1 — IC50 (TRPA1 (Homo sapiens, UniProt O75762); ion current): > 25000 nM
CC(=O)c1cnc(N)nc1N1CC[C@H]1c1nn2ccc(Cl)c2c(=O)n1-c1ccccc1 — IC50 (Phosphatidylinositol 4,5-bisphosphate 3-kinase catalytic subunit gamma isoform (Mus musculus, UniProt Q9JHG7); AKT phosphorylation, inhibitor; RAW 264.7; together with: C5a): 10 to 25 nM and 11 nM
CC(C)[C@H]1NC(=O)[C@H](CCC(N)=O)NC(=O)C[C@@H](CCc2ccccc2)NC(=O)[C@@H]2CCCCN2C(=O)C(=O)C(C)(C)COC(=O)[C@@H](C)NC(=O)[C@@H](C(C)C)NC1=O — IC50 (FKBP1A (Homo sapiens, UniProt P62942); binding, fluorescence polarization competition; crude library samples): > 100000 nM
CC12CC3CC(C)(C1)CC(NC(=O)Nc1ccc(C(=O)N4CCCC(C(=O)O)C4)cc1)(C3)C2 (centres unmarked) — IC50 (EPHX2 (Homo sapiens, UniProt P34913); enzyme activity, inhibitor): 0.42 nM
CCCCSc1nc(N)c2c(F)c(F)c(C#N)c(F)c2n1 — IC50 (CDC25B (Homo sapiens, UniProt P30305); enzyme activity, inhibitor, fluorescence): 6790 nM

Excerpt of the above:
CC12CC3CC(C)(C1)CC(NC(=O)Nc1ccc(C(=O)N4CCCC(C(=O)O)C4)cc1)(C3)C2 (centres unmarked) — IC50 (EPHX2 (Homo sapiens, UniProt P34913); enzyme activity, inhibitor): 0.42 nM
